Assay results collected from several papers.
± gives the spread as reported.

COC(=O)C1C(c2nc3ncccc3[nH]2)=Cc2cc3c(cc2C1c1cc(OC)c(OC)c(OC)c1)OCO3 (stereo not shown)  CC50 (Alamar Blue; splenocytes, mouse, uninfected ex vivo splenic explants; 48 h): 40.7 ± 6.5 µM
[11CH3]c1ccc2nc(C3CCC3)n(-c3ccc4[nH]ncc4c3)c2n1  absorbed dose (extrapolated from mouse biodistribution; standard human, gallbladder wall): 4.4 µSv/MBq
CN(C)C(=O)c1ccc(COC(=O)N[c-]2cccc2)cc1.[Fe+2].c1cc[cH-]c1  E1/2 (cyclic and differential pulse voltammetry; acetonitrile; 23 °C; reference: ferrocene/ferrocenium): -70 mV
C#CCOc1ccc(/C=C2\SC(=O)N(CC(=O)NCc3ccccc3)C2=O)cc1  correlation volume (inverse Kirkwood-Buff integrals; binary solvent mixture; concentration not given, 298.15 K, mole fraction x1 0.90): 5800 cm³/mol
CC(C)[C@H](NC(=O)CNC(=O)[C@H](CCC(N)=O)NC(=O)[C@H](C)N)C(=O)O  time to concentration below LOQ (human; 3 mg/kg single dose, LOQ 0.5 ng/mL): 20 min
CCCC[C@H](NC(=O)CNC(=O)CNC(=O)CN1CCN(CC(=O)O)CCN(CC(=O)O)CCN(CC(=O)O)CC1)C(=O)N[C@H]1CC(=O)NCCCC[C@@H](C(N)=O)NC(=O)[C@H](Cc2c[nH]c3ccccc23)NC(=O)[C@H](CCCNC(=N)N)NC(=O)[C@@H](Cc2ccccc2)NC(=O)[C@H](Cc2c[nH]cn2)NC1=O [lead-203 labelled]  urinary excretion (normal C57 mice, urine; intravenous, 0.056 MBq, 4 h): 92 ± 2.16%
CCCC[C@H](NC(C)=O)C(=O)N[C@H]1CC(=O)NCCCC[C@@H](C(=O)N[C@@H](C(=O)N2CCC[C@@H]2C(N)=O)C(C)C)NC(=O)[C@H](Cc2c[nH]c3ccccc23)NC(=O)[C@H](CCCN=C(N)N)NC(=O)[C@@H](Cc2ccc3ccccc3c2)NC(=O)[C@@H]2CCCN2C1=O  plasma histamine (healthy dogs, plasma; subcutaneous, 2.25 mg/kg per day, day 28, 30 min post-dose, median): 20.8 ng/mL
Cc1ncnc2c1c(C1=CCSCC1)cn2[C@@H]1O[C@H](CO)[C@@H](O)[C@H]1O  CC50 (microscopy; primary peritoneal macrophages, Swiss mouse; 5 days): > 64 µM
CCC(=O)N[C@@H](C)C(=O)OCC(=O)N[C@@H](C)C(=O)O  depolymerization half-life (water; pH 4, 25 °C): 1660 h
CCCC[C@H](NC(=O)CNC(=O)CNC(=O)CN1CCN(CC(=O)O)CCN(CC(=O)O)CCN(CC(=O)O)CC1)C(=O)N[C@H]1CC(=O)NCCCC[C@@H](C(N)=O)NC(=O)[C@H](Cc2c[nH]c3ccccc23)NC(=O)[C@H](CCCNC(=N)N)NC(=O)[C@@H](Cc2ccccc2)NC(=O)[C@H](Cc2c[nH]cn2)NC1=O [copper-64 labelled]  uptake ratio (female C57 mouse, B16/F1 melanoma; intravenous, 0.037 MBq, 24 h; reference: tumour over kidneys): 1.11
CCCC[C@H](NC(=O)CN1CCC(NC(=O)CN2CCN(CC(=O)O)CCN(CC(=O)O)CCN(CC(=O)O)CC2)CC1)C(=O)N[C@H]1CC(=O)NCCCC[C@@H](C(N)=O)NC(=O)[C@H](Cc2c[nH]c3ccccc23)NC(=O)[C@H](CCCNC(=N)N)NC(=O)[C@@H](Cc2ccccc2)NC(=O)[C@H](Cc2c[nH]cn2)NC1=O [gallium-68 labelled]  uptake ratio (male C57BL/6J mice, B16-F10 tumours, tumour, muscle; intravenous, 1 h, blocking study, added: 100 µg non-radioactive Ga-peptide; reference: tumour over muscle): 2.8 ± 0.9
CC(C)(Sc1cc[n+]([O-])cc1-c1ccc(C#N)c2ccccc12)C(=O)OC1OC(C(=O)O)C(O)C(O)C1O (stereo not shown)  fraction excreted unchanged (urine; oral, 15 mg, 72 h, normal renal function; reference: dose): 18%
C[C@H](Oc1cc(-c2cnn(C3CCN(CC[18F])CC3)c2)cnc1N)c1c(Cl)ccc(F)c1Cl  tracer uptake (PET imaging; nude mouse, heart; iv, 5 min post injection): 5.2 ± 1 %ID/cc
O=S(=O)(O)c1cc(O)c(O)c(S(=O)(=O)O)c1  diffusion coefficient (rotating disk electrode voltammetry; 1 M H2SO4; 2 mM, reduced form): 4.88e-06 cm²/s
CC/C=C\C/C=C\C/C=C\C/C=C\C/C=C\CCCCOC(CC)C(=O)O (stereo not shown)  tissue concentration (14C radiolabel; Wistar rats male, muscle; oral, 100 mg/kg, 2 h): 5.2 µg/g
CC(C)(Sc1ccncc1-c1ccc(C#N)c2ccccc12)C(=O)OC1OC(C(=O)O)C(O)C(O)C1O (stereo not shown)  renal clearance (human, urine; oral, 15 mg, 72 h, normal renal function): 201 mL/min
C=C(c1ccc(C(=O)O)c(F)c1)c1cc2c(cc1C)C(C)(C)C=CC2(C)C  blood triglycerides (Sprague-Dawley rat, male; oral, 100 mg/kg, 3 h, sesame oil vehicle): 113 ± 7.8 mg/dL
CN[C@@H](CCOc1cccc2ccccc12)c1ccccc1  median Tmax (healthy male humans, plasma; oral, 60 mg of dapoxetine): 2 h
N=C(N)NCCC[C@@H]1NC(=O)[C@H](Cc2c[nH]c3ccccc23)NC(=O)[C@@H](CC2CCCCC2)NC(=O)[C@@H]2CCCN2C(=O)[C@@H](NC(=O)CCc2ccccc2)CCCNC1=O  elimination half-life (C57BL/6J mice, brain; intravenous, 1 mg/kg): 0.598 h
CC(C)[C@H](NC(=O)[C@@H]1CCCN1C(=O)[C@H](CCCNC(=N)N)NC(=O)[C@H](CS)NC(=O)[C@H](Cc1c[nH]c2ccccc12)NC(=O)[C@H](CCCNC(=N)N)NC(=O)[C@@H](Cc1ccccc1)NC(=O)[C@H](Cc1c[nH]cn1)NC(=O)[C@H](CCC(=O)O)NC(=O)[C@H](CS)NC(=O)[C@H](CS)NC(=O)CNC(=O)[C@@H]1CC(=O)N[C@@H](CCCNC(=N)N)C(=O)NCC(=O)N[C@@H](CC(=O)O)C(=O)N[C@H](Cc2ccc(O)cc2)C(=O)N1)C(N)=O [technetium-99m labelled]  tumour to tissue ratio (C57 mouse, female, B16/F1 melanoma; intravenous, 0.037 MBq, 2 h; reference: tumour over kidneys): 0.55
COCCOCCOCCOCCC(=O)NCc1cc(CNC(=O)CCOCCOCCOCCOC)cc(-c2cc3cc4nc(c(-c5ccc(CCC(=O)O)cc5)c5[nH]c(cc6nc(c(OC)c2[nH]3)CC6(C)C)cc5-c2cc(CNC(=O)CCOCCOCCOCCOC)cc(CNC(=O)CCOCCOCCOCCOC)c2)CC4(C)C)c1  intersystem crossing yield (DMF; room temperature): 0.43
O=C(NCCCN(CCCCN(CCCNC(=O)c1cccc(=O)n1[O-])C(=O)c1cccc(=O)n1[O-])C(=O)c1cccc(=O)n1[O-])c1cccc(=O)n1[O-].[89Zr+4]  intact complex (human serum; 7 days, 37 °C): 98.8%
C=CC(=O)Nc1cc(Nc2nccc(-c3cn(C)c4ccccc34)n2)c(OC)cc1N(C)CCNC  steady-state trough concentration (UHPLC-MS/MS; human, plasma; oral, 80 mg daily): 18 ng/mL
Cc1ccc(-c2ccc(-c3cc4sccc4o3)cn2)nc1  fluorescence quantum yield (acetonitrile; zinc(II) complex, added: quinine bisulfate reference): 0.55
Cc1ccc(/N=N/c2c(O)ccc3ccccc23)c(C)c1  elimination half-life (Sprague-Dawley rats both sexes, whole blood; oral, 50 mg/kg): 1.81 h
O=C([O-])CN1CCN(CC(=O)[O-])CCN(CC(=O)NCC2CCC(C(=O)NC(Cc3ccc4ccccc4c3)C(=O)NCCCCC(NC(=O)NC(CCC(=O)O)C(=O)O)C(=O)O)CC2)CCN(CC(=O)[O-])CC1.[44Sc+3] (stereo not shown)  intact complex (transchelation stability; 0.5 h, 37 °C, added: DTPA 10 mM): 96.7 ± 1.2%
Polymyxin B  fraction in filtrate (ultrafiltration ELISA; 0.9% NaCl solution; 1 µg/mL, 30 kDa MMCO filter; reference: positive control): 54%
CC(C)(C)NCC(SS(=O)(=O)O)c1ccccc1 (stereo not shown)  metabolic rate constant (non-specific degradation; CD1 mouse, female, liver microsomes; 4 µM, pH 7.4, without NADPH): 0.5 h⁻¹
Cn1c(=O)oc2ccc(-c3ccc(CC(C#N)NC(=O)C4CNCCCO4)c(F)c3)cc21 (stereo not shown)  acne incidence (human; oral, 10 mg once daily, TEAE, multiple ascending dose): 0%
CC(=O)c1ccc2c(c1)sc(=O)n2CCCNC(=O)CN(CCN(CCN(CC(=O)O)CC(=O)NCCCn1c(=O)sc2cc(C(C)=O)ccc21)CC(=O)O)CC(=O)O  hemolysis (human erythrocytes; concentration not given, 4 h): 2.33%
NC(=O)c1cnc2[nH]ccc2c1NC1C2CC3CC1CC(OS(=O)(=O)O)(C3)C2 (stereo not shown)  AUC(0-t) (Japanese adults, mild hepatic impairment, plasma; oral, 150 mg single dose): 4370 ng·h/mL
CC(C)c1cnc(-c2cc(Cl)ccc2F)cc1Nc1ccncc1C(=O)NC(CO)CO  patients with treatment-related adverse event (monotherapy, measured: vomiting; human patients; oral, dose not given, grade 5, phase I A): 0%
O=C([O-])CN1CCN(CC(=O)[O-])CCN(CC(=O)NC[C@H]2CC[C@H](C(=O)N[C@H](Cc3cnc4ccccc4c3)C(=O)NCCCC[C@H](NC(=O)N[C@@H](CCC(=O)O)C(=O)O)C(=O)O)CC2)CCN(CC(=O)[O-])CC1.[64Cu+2]  absorbed dose (PET/CT dosimetry; healthy human volunteers, stomach): 0.013 mGy/MBq
N=C(N)NCCC[C@H](NC(=O)[C@@H]1CCCN1C(=O)[C@H](Cc1ccccc1)NC(=O)[C@@H]1CCCN1C(=O)[C@H](Cc1c[nH]cn1)NC(=O)[C@@H](N)Cc1ccccc1)C(=O)O  elimination rate constant (Sprague-Dawley rat male, plasma; oral gavage, 50 mg/kg): 0.03 ± 0.01 min⁻¹
CCCC[C@@H]1NC(=O)[C@@H](NC(=O)[C@H](CCC(=O)O)NC(=O)CNC(=O)CN2CCN(CC(=O)O)CCN(CC(=O)O)CCN(CC(=O)O)CC2)CCCCNC(=O)C[C@@H](C(N)=O)NC(=O)[C@H](C(C)C)NC(=O)[C@@H]2CCCN2C(=O)[C@H](CCCNC(=N)N)NC(=O)CNC(=O)[C@H](Cc2c[nH]c3ccccc23)NC(=O)[C@H](CCCNC(=N)N)NC(=O)[C@@H](Cc2ccccc2)NC(=O)[C@H](Cc2c[nH]cn2)NC(=O)[C@H](CCC(=O)O)NC1=O [gallium-67 labelled]  tissue uptake (C57 mice, B16/F10 lung metastases, kidneys; intravenous, 0.037 MBq/mouse, 2 h): 29.7 ± 6.55 %ID/g
O=C(Nc1nccs1)C(c1cc(F)ccc1O)N1Cc2ccccc2C1=O (stereo not shown)  recovery (methanol stock solution; 1.5 months, -30 °C): 93.4%
CCn1c(=O)n(CCO)c(=O)c2c1nc(/C=C/c1ccc(OC)c(OC)c1)n2C  metabolite to parent AUClast ratio (healthy humans, plasma; oral, 40 mg, added: rifampin 600 mg/day): 0.0705
CCCC[C@H](NC(=O)CNC(=O)CNC(=O)CN1CCN(CC(=O)O)CCN(CC(=O)O)CCN(CC(=O)O)CC1)C(=O)N[C@H]1CC(=O)NCCCC[C@@H](C(N)=O)NC(=O)[C@H](Cc2c[nH]c3ccccc23)NC(=O)[C@H](CCCNC(=N)N)NC(=O)[C@@H](Cc2ccccc2)NC(=O)[C@H](Cc2c[nH]cn2)NC1=O [gallium-67 labelled]  tumour to skin uptake ratio (C57 mice, B16/F1 melanoma; 4 h): 31.1
COc1cc(NC(C)=O)c2c(c1O)-c1c(OC)c(OC)cc3c1C(C2)N(C)CC3 (stereo not shown)  remaining compound (rat kidney homogenate; 50 µg/mL, 4 h, room temperature, short-term storage): 91.7 ± 2%
Cc1ccc(OCC(=O)O)cc1  t1/2 (Sprague-Dawley rat Crl:CD(SD), female, plasma; oral, 30 mg/kg/day of parent drug, day 90, 90-day repeated dosing): 2.43 h
NS(=O)(=O)c1ccc(N2N=C(C(F)(F)F)C(O)C2c2ccc(F)cc2F)cc1 (stereo not shown)  metabolite formation rate (substrate; male Wistar rat liver microsomes; 20 µM, pH 7.4, mean of 0-90 and 0-60 min): 87.7 pmol/min/mg
COC[C@@H](CC(C)C)NC(=O)c1ccc(CO)c(C)c1  metabolite peak area (LC-MS; human liver microsomes; 10 µM of parent drug, 20 min, pH 7.4, added: NADPH; reference: parent drug at time zero): 3.6%
NC12CNCCNCC(NCc3ccc(CNC(=O)CCCC(=O)NCc4ccc(-c5nncnn5)cc4)cc3)(CNCCNC1)CNCCNC2.[64Cu+2]  mean absorbed dose (OLINDA dosimetry; total body; pretargeting, 48-h interval): 0.0347 rad/mCi

For quick reference, copied from above:
Cc1ccc(-c2ccc(-c3cc4sccc4o3)cn2)nc1  fluorescence quantum yield (acetonitrile; zinc(II) complex, added: quinine bisulfate reference): 0.55
Cc1ccc(/N=N/c2c(O)ccc3ccccc23)c(C)c1  elimination half-life (Sprague-Dawley rats both sexes, whole blood; oral, 50 mg/kg): 1.81 h
O=C([O-])CN1CCN(CC(=O)[O-])CCN(CC(=O)NCC2CCC(C(=O)NC(Cc3ccc4ccccc4c3)C(=O)NCCCCC(NC(=O)NC(CCC(=O)O)C(=O)O)C(=O)O)CC2)CCN(CC(=O)[O-])CC1.[44Sc+3] (stereo not shown)  intact complex (transchelation stability; 0.5 h, 37 °C, added: DTPA 10 mM): 96.7 ± 1.2%
Polymyxin B  fraction in filtrate (ultrafiltration ELISA; 0.9% NaCl solution; 1 µg/mL, 30 kDa MMCO filter; reference: positive control): 54%
CC(C)(C)NCC(SS(=O)(=O)O)c1ccccc1 (stereo not shown)  metabolic rate constant (non-specific degradation; CD1 mouse, female, liver microsomes; 4 µM, pH 7.4, without NADPH): 0.5 h⁻¹
Cn1c(=O)oc2ccc(-c3ccc(CC(C#N)NC(=O)C4CNCCCO4)c(F)c3)cc21 (stereo not shown)  acne incidence (human; oral, 10 mg once daily, TEAE, multiple ascending dose): 0%
CC(=O)c1ccc2c(c1)sc(=O)n2CCCNC(=O)CN(CCN(CCN(CC(=O)O)CC(=O)NCCCn1c(=O)sc2cc(C(C)=O)ccc21)CC(=O)O)CC(=O)O  hemolysis (human erythrocytes; concentration not given, 4 h): 2.33%
